Measurements gathered from unrelated publications.
Lines come from different studies, so protocols differ. Several values in a cell are separate wells, animals, samples, runs or records. ± gives the spread as reported.

SMILES = CCCCCCCC(=O)NCCCC[C@H](NC(=O)CCCCCCC)C(=O)N[C@@H](CCCCNC(=O)CCCCCCC)C(=O)NCC(=O)NCC(=O)NCC(=O)N[C@@H](CS)C(=O)N[C@@H](CCCNC(=N)N)C(=O)N[C@@H](CCCCN)C(=O)N1CCC[C@H]1C(=O)N[C@@H](CS)C(=O)N[C@@H](CCCNC(=N)N)C(=O)N[C@@H](CCCCN)C(=O)N1CCC[C@H]1C(=O)N[C@@H](CS)C(=O)N[C@@H](CCCNC(=N)N)C(=O)N[C@@H](CCCCN)C(=O)N1CCC[C@H]1C(=O)N[C@@H](CS)C(=O)N[C@@H](CCCNC(=N)N)C(=O)N[C@@H](CCCCN)C(=O)N1CCC[C@H]1C(N)=O; target or system = Candida; conditions = twelve fungal strains; endpoint = geometric mean MIC; result = 19 µM
SMILES = COc1ccc(C2=[N+]([O-])c3ccccc3N3CC(C)(C)CN=C23)cc1; target or system = Clostridioides difficile; test = microbial growth; endpoint = MIC90; result = 8 µg/mL
SMILES = O=C1NC2(CC2)COc2ncc(F)cc2[C@H]2COCCN2c2ccn3ncc1c3n2; test system = Sprague-Dawley rat, male, heart; conditions = oral, 5 mg/kg/day, 4 weeks, end of treatment; endpoint = organ-to-brain weight ratio; result = 73 ± 7.74%
SMILES = CCC1(CC)CC(=O)N(C2c3cc(C(=O)NC4c5ccccc5CC4O)ccc3OC2(C)COC)C(=N)N1 (stereo not drawn); target or system = Plasmodium falciparum; test = parasite growth; test system = Dd2-NITD609; endpoint = EC50; result = 0.4 ± 0.2 nM
SMILES = Cc1cc(C(=O)Nc2nc3cccc(C)c3n2[C@H]2CCCCN(C(=O)/C=C/CN(C)C)C2)ccn1; target or system = Trypanosoma brucei; test = propidium iodide flow cytometry; test system = bloodstream form; conditions = concentration not given, 72 h; endpoint = cells in G1 phase; result = 37.1%
SMILES = NCCCO.O=C(O)C(Cl)Cl; target or system = Chenopodium album; test = herbicidal activity; conditions = 15 mg/mL, 21 days, post-emergence greenhouse; endpoint = inhibition; result = 78%
SMILES = COc1ccccc1CCNC1CCCc2c1[nH]c1ccc(C)cc21 (stereo not drawn); target or system = Streptococcus pneumoniae; conditions = concentration not given, 10% fetal bovine serum; scale = relative to: without serum; endpoint = MIC fold change; result = 4
SMILES = COc1ccccc1-c1n[nH]c2nc(N[C@H]3CC[C@H](NS(=O)(=O)CC(C)C)CC3)ncc12; test = bead binding, competition bead pull-down, refers to: LMJF.28.2750; test system = Leishmania donovani extract; conditions = 10 µM; scale = relative to: vehicle; endpoint = relative abundance; result = 0.85
SMILES = Cc1cc(Oc2nc(N3CC[C@@H](c4ccncc4)C3)ncc2F)[nH]n1; target or system = Mycobacterium tuberculosis; test system = THP-1, H37Rv non-replicating; conditions = 0.3001 µM, day 4 plus 1; endpoint = normalised growth; result = 34.7% and 35.5%
SMILES = CS(C)(=O)=Nc1ccc(-c2ccc(-c3nc4cc(O[C@@H]5CO[C@H]6[C@@H]5OC[C@H]6O)[nH]c4cc3F)cc2)cc1; target or system = EGFR (Homo sapiens, UniProt P00533, L861Q); test = enzyme activity, inhibitor; conditions = 10 µM; endpoint = inhibition; result = -20%
SMILES = CC(C)[C@H]1NC(=O)[C@H](Cc2ccccc2)NC(=O)[C@@H](C(C)C)NC(=O)[C@@H](C)NC(=O)[C@H](CO)NC(=O)[C@@H](Cc2c(-c3ccc(-c4ccc(-c5ccccc5)cc4)cc3)[nH]c3ccccc23)NC(=O)[C@@H](CO)NC1=O; target or system = Mycobacterium marinum; endpoint = MIC90; result = 39.8 µM
SMILES = CCN1CCN(Cc2ccc(CNc3nc(N(C)C)nc(N(C)C)c3/N=N/c3ccc(Cl)cc3)cc2)CC1; target or system = Ostrinia furnacalis; test = leaf dipping; conditions = 500 mg/L, 96 h; endpoint = mortality; result = 100%
SMILES = O=S(=O)(c1ccc(-c2ccc3ncnc(Nc4ccccc4)c3c2)cc1)N1CCOCC1; target or system = Trypanosoma cruzi; test = intracellular amastigote growth, β-galactosidase CPRG; test system = 3T3, Tulahuen, β-galactosidase-expressing; conditions = 10 µM, 96 h; endpoint = inhibition; result = 13%
SMILES = S=C=NCc1ccccc1; target or system = Phelipanche ramosa; test = seed germination, stimulant; test system = seeds; conditions = 1 µM; scale = relative to: (±)-GR24; endpoint = maximum germination stimulation; result = 94%
SMILES = COc1ccccc1-c1n[nH]c2nc(NC3CCN(C(=O)Cc4ccc(F)cc4F)CC3)ncc12; test = bead binding, competition bead pull-down, refers to: LINJ.36.5160; test system = Leishmania donovani axenic amastigote extract; conditions = 10 µM; scale = relative to: vehicle; endpoint = relative abundance; result = 0.68
SMILES = CC(C)[C@H]1NC(=O)[C@H](Cc2ccccc2)NC(=O)[C@@H](C(C)C)NC(=O)[C@@H](C)NC(=O)[C@H](CO)NC(=O)[C@@H](Cc2c(-c3ccc(-c4cccc5ccccc45)cc3)[nH]c3ccccc23)NC(=O)[C@@H](CO)NC1=O; target or system = Mycobacterium marinum; endpoint = MIC90; result = 40.8 µM
SMILES = O=C1NC(=O)c2c1c1cc(F)c[n+]3c1c1c2c2cc(O)ccc2[n]1[Ru-4]312([N]=C=S)[S+]3CC[S+]1CC[S+]2CC3 (stereo not drawn); target or system = ABL1 (Homo sapiens, UniProt P00519, Q252H); test = enzyme activity; conditions = 100 nM, human enzyme, together with: 10 µM ATP; scale = relative to: untreated; endpoint = remaining activity; result = 90%
SMILES = CC[C@H](C)[C@H](NC(=O)[C@H](C)NC(=O)CNC(=O)[C@H](C)NC(=O)[C@H](CCCCN)NC(=O)[C@H](CO)NC(=O)[C@H](C)NC(=O)[C@H](CCSC)NC(=O)CN)C(=O)N[C@@H](C)C(=O)NCC(=O)N[C@@H](CCCCN)C(=O)N[C@H](C(=O)N[C@@H](C)C(=O)N[C@@H](CCCCN)C(=O)N[C@H](C(=O)N[C@@H](C)C(=O)N[C@@H](CC(C)C)C(=O)N[C@@H](CCCCN)C(=O)N[C@@H](C)C(=O)N[C@@H](CC(C)C)C(N)=O)C(C)C)[C@@H](C)CC; target or system = Escherichia coli; test system = CFT073 nalidixic acid-resistant; conditions = together with: nalidixic acid; endpoint = combination index; result = 0.85
